Experimental data pooled from the literature.
Numbered parts are unrelated; each lists some results of a single study.

Set 1 — technique: RNA Bind-n-Seq; form: RNA; sample: in vitro; concentration: 365 nM; relative to: no-protein control; direction: higher = stronger binding
Target: RNA binding protein fox-1 homolog 2, RRM domain, GST-SBP tag (RBFOX2, Homo sapiens, UniProt O43251-10, residues 100-194)
Setting: natural RNA segment, single round, ends assumed
All sequences stand within: GGGAGUUCUACAGUCCGACGAUC … UGGAAUUCUCGGGUGCCAA
Target sequence (chain): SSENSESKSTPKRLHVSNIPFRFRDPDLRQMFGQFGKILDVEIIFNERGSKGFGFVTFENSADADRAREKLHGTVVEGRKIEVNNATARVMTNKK
For `AAGUAUUUAAUUGACUGCCUGAGAGUCAGCUUUGGGGGCGCUCUCAGUUUGCUUUAGCCAUGACUGCCUGAGAAGUCUUAACCUCUGUGCCUCUCUGUAUCCUAUGGAAA`, “RBNS enrichment (R)” read 0.586.
`GAAGUUAACUCACUAUAUUCGGAAACUUACUGGCCUAGAGAAUUUUAUCCCAGGCAUUCUUAGAUGGAAAACAAUACUUUUGUUUUUUCUUCUAAAUUGAAGCUUGUUAA` — result for “RBNS enrichment (R)”: 0.442.
For `UAGGAGGGGAUCGGGUUUGGCCCCCAGCCCCGCUCACGCCAGUCCCUCUUCCUCUGCCGGGAGGGUGUUUUCAACUCCAAACCCCAGAGAGGGGUUGUAGAUUGGGUCCA`, “RBNS enrichment (R)” read 0.465.
For `UGUGUUAAAAUGUUCCUGUAAAAGAAACAUUGGUAAAUUUAAAUACAUACUGUUCUAAUUUUGUAUUUUUUAAUUUUUGAAUUUGACAUUGAGUUUAAUUCAGCAACAAC`, “RBNS enrichment (R)” read 0.786.
Under “RBNS enrichment (R)”, `AAGCUCUCCCCAGCUAGUGAAAACCUGAACAUCGUUAGAGUCACCGACUUUACAUGCUCAGAAUGCUGUGCACAAGCCACGCUUUCUAAAGCCCAUCCAGAUUAGUUUAG` is recorded as 0.444.
`UGGUUUCCAUGUGGCAAGAUCCCCGAGAAAACACAGCUAGGUGACUUUCUGACAAGCUGAAGCUAAUUGGUUCUUGAAUCUGAGUUGUUUCAAUUUAGGCCAAGUACUAG`: “RBNS enrichment (R)” 0.284.
For `CAGUCUUACUCCUGAUCUCUUUAGUCCCAAUCCUGCCAAUAAAAAGCAUCGUUUAACUUGUUCUAUGACCCUCUCCUUGCCAUUUAUUCUGGACCUGAUGGGAACCAAAG`, “RBNS enrichment (R)” read 0.678.
`AAAAGGAAAAUCAAAAUCACUUCUAAUUACAAAAUGUGCUGUUUUGGUGGGGUGGGCAAUCAGAUUAUUAUAGUUGAUGACUGUACCAAAGAUCUGGAAUGGGGGCCACC`: “RBNS enrichment (R)” 1.25.
`GACAACUCCUAGAACAUGUGCACCCAUGCAUAUGAUGACAGAUGUCUGCUUUUAAUGCAGCUGUGGACUGAGGUGUGGCUCAGAGGACACUUGUUCACUAAGUGUAAGAC`: “RBNS enrichment (R)” 0.562.
Under “RBNS enrichment (R)”, `CGUAAGGGACAUGAAUUCUAGGGUCUCCUUUCUCCUUAUUUAUUCUUGUGGCUACAUCAUCCCUGGCUGUGGAUAGUGCUUUUGUGUAGCAAAUGCUCCCUCCUUAAGGU` is recorded as 0.624.
`AGCUAUUUUAAAGAUGUUUUAAACAGUGGAAGAAUUAAGUCCACCAAAAGUCUUCCAUGAAAUGUAGCAGAGUUUCUGUCUGCCCUGCAUUACCUGCCAGCGAGUCAAGG`: “RBNS enrichment (R)” 0.388.
`AGACACCACAUGACAAGGGGUAUAAGCCCCAGCCCUGCUCAUUCCCACUCACCAGCUGAGGUCUGUCAGGUUUUGAAGGCUUGAUUUUGUGGUGGGUUUGGGGCUUAGUU`: “RBNS enrichment (R)” 0.333.

Set 2 — technique: RNA Bind-n-Seq; form: RNA; sample: in vitro; concentration: 100 nM; relative to: input RNA pool; direction: higher = stronger binding
Target: RING finger protein unkempt homolog, zinc fingers 1-6, SBP tag (UNK, Homo sapiens, UniProt Q9C0B0, residues 30-357)
UniProt Q9C0B0, sequence (30-357, looked up): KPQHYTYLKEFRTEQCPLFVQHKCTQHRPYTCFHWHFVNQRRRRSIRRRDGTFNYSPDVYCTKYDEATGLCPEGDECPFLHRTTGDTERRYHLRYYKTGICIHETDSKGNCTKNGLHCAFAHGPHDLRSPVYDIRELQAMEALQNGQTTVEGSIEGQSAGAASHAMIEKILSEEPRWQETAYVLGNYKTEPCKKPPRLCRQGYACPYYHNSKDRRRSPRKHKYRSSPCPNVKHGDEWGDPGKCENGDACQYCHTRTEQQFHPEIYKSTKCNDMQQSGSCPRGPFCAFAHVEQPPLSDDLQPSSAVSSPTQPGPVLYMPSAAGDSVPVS
Setting: RNA with constant flanks, vertebrate orthologous sites, ends assumed
All sequences stand within: GGGAGUUCUACAGUCCGACGAUC … CAACAGAGGAUUGAGCAUCA
The bound/input enrichment of `UAAGAAUUGGAAGAAUUUUAUAGGAGGUGGUAGUCAAAAAGUAGAAGCAGUUUGGAAGAGUGGUUACAAAUAUCAAGAGCCAGGUGGCUAAAAGGUGGAGCUAUAGGUCAUUGAAGCUCA` is reported as 0.588 ratio.
`AUCUCUCAUGUUAUAGAUUCAAAAGUGUCAUUUAAUUUUUAACGAAUUACUGGUUUUAAUUAAUUAGCUCUGCUUGGUCUUAUGGUUCACCUCCAGCAGAUACAGGUCUGAAUUACUACA` has a bound/input enrichment of 0.606 ratio.
`UGGGUGACUUUGGACGUCCGCUCAGCCAGGUUGCAGAAGCGGCUUAGCGUGUGUCCUAAUCUUCUCUCUGUGUAGGUAGGCCUGUGCCGCAAACAUGCUCCGCCAGAUCCUCGGGCAAGC` has a bound/input enrichment of 0.275 ratio.
`AUCUCACAUUUUAUAUGUCCAAAAGAGGUUUUGAAUUUUUAAACAAUUGCUAGUUUUGACUAGCUCUGCCCUCAUGAAGUAUCAUUAUAAUCGCCACAGAUAUCUGUCUGAAUUACUUCA` gave a bound/input enrichment of 0.397 ratio.
`UAUUAUUCAUUUGAUUAAAAUUAUUUAGAUAAGAAGUUAUUGUGUAUGUUUGCUUUCAAACAGCCUCCCUAUUUUUCUUCCUUUGUGAGGUCUCUCAUGCAUAGCAGAAUCUAUUAUGGA` has a bound/input enrichment of 0.454 ratio.
The bound/input enrichment of `UACUGGGUUGUGACAGUCCUCCUACCUCUCACACAGCACAGGGAGGACACCGGUCAGCAUCGGGGAGUCAGCUGCUCUUACGUUUUCAGUGCUGUGUAUCUGAGCCUUGAACGAGUCUCA` is reported as 0.172 ratio.
The bound/input enrichment of `CAACUCAAUGGUUGAGGGUUCUGAACUCAAAAAGGUUCGCUCAAACUCCAGGAUUUAUCAUCGGUACUUUUUGUUGGAUGCUGACAUGCAAAGCCUGAGGUGGGAGCCAUCUAAGAAGGA` is reported as 0.189 ratio.
For `AGUGUCAUACCAGCAUAUUUACUAGUUUGUGUGCACAGCUGAAAAAAAGAGGUAACUGCUUAGUUAUACUCCACAAAGUCUUUCAGAUUUGUUACCUUUUCAUUCCCACACUGACACUAC`, the bound/input enrichment was 0.399 ratio.
For `AAAUAUACUUCAUGCCAUGGACUCCAUAUCGCACCGAUACUUUGAUAGAAUUUGCUUCUUUAGAGGACUUCCAAAAUGGACGCCAGCAGACGACAUAUAAACUGCCAAAUAGAGUGGAUG`, the bound/input enrichment was 0.959 ratio.
For `UCUAUACAAUUUUAAAAAUACUUCCUCAUAGGAUGCUUUGGCCCUUCAUCUAUUUAAUCAUAGCUACAUAUCUAUUUUUUAUAAGUAGCAGUACACAUUCAAAGGGGUAUUCCUAGCUCA`, the bound/input enrichment was 1.22 ratio.
The bound/input enrichment of `CUUAAUUAGAGGGUAGUAUAUGUUUCAUAAAGAAGAGCCUUUAUAAUUUUGUUUGUCAUAUAGCAUUUUGGAAUUUGUAUAAUGAGAAUGUUUAGAAGCCAUAUCAAUGGCUUUUUUAAA` is reported as 0.677 ratio.

Set 3 — technique: aptamer microarray, sandwich; form: DNA with 2'F-ANA; sample: in vitro; concentration: 200 nM; added: Cy3 exosite-II aptamer, 400 nM; direction: higher = stronger binding; strand: GGTTGGTGTGGTTGG
Target: Prothrombin, mature alpha-thrombin (F2, Homo sapiens, UniProt P00734)
Setting: whole 15-mer aptamer, many near background
For `2'F-ANA at 1 4 6 8 9 11 12 13 15`, “mean fluorescence intensity” read 213 a.u.
`2'F-ANA at 2 4 6 8 9 10 11 13 14` — result for “mean fluorescence intensity”: 65.8 a.u.
Under “mean fluorescence intensity”, `2'F-ANA at 3 6 8 11 12 14 15` is recorded as 583 a.u.
`2'F-ANA at 2 3 4 5 6 7 9 10 12` — result for “mean fluorescence intensity”: 59 a.u.
Under “mean fluorescence intensity”, `2'F-ANA at 1 4 6 9 10 11 12 15` is recorded as 55.2 a.u.
`2'F-ANA at 2 4 5 6 7 13 14 15`: “mean fluorescence intensity” 58.9 a.u.
For `2'F-ANA at 1 4 6 9 11 13 15`, “mean fluorescence intensity” read 74.2 a.u.
`2'F-ANA at 4 5 6 7 8 9 10 11 12 15` — result for “mean fluorescence intensity”: 49.2 a.u.
For `2'F-ANA at 3 4 5 6 7 9 10 14 15`, “mean fluorescence intensity” read 52.9 a.u.
`2'F-ANA at 1 4 5 9 11 13 14` — result for “mean fluorescence intensity”: 44.5 a.u.
`2'F-ANA at 5 7 8 9 10 11 13 14 15`: “mean fluorescence intensity” 58.3 a.u.
Under “mean fluorescence intensity”, `2'F-ANA at 2 3 7 8 9 12 14` is recorded as 519 a.u.
`2'F-ANA at 1 3 5 6 7 8 10 12 13 14`: “mean fluorescence intensity” 55.8 a.u.
`2'F-ANA at 2 6 9 10 14` — result for “mean fluorescence intensity”: 88.1 a.u.
`2'F-ANA at 1 4 7 8 10 11 13` — result for “mean fluorescence intensity”: 49.3 a.u.
`2'F-ANA at 1 2 3 5 8 10 11 12 15` — result for “mean fluorescence intensity”: 66.8 a.u.
`2'F-ANA at 3 8 11 12 13 15`: “mean fluorescence intensity” 1260 a.u.
For `2'F-ANA at 1 3 4 9 10 11 13`, “mean fluorescence intensity” read 57.3 a.u.
`2'F-ANA at 2 5 11 13 14 15` — result for “mean fluorescence intensity”: 51.9 a.u.

Set 4 — technique: RNA Bind-n-Seq; form: RNA; sample: in vitro; concentration: 200 nM; setting: whole 134-nt RNA, ends assumed; added: 150 mM LiCl; relative to: input library; direction: higher = stronger binding; library: 7-deaza-guanosine replaces G
Target: Ras GTPase-activating protein-binding protein 1, full length (G3BP1, Homo sapiens, UniProt Q13283)
UniProt Q13283, sequence (whole entry, looked up): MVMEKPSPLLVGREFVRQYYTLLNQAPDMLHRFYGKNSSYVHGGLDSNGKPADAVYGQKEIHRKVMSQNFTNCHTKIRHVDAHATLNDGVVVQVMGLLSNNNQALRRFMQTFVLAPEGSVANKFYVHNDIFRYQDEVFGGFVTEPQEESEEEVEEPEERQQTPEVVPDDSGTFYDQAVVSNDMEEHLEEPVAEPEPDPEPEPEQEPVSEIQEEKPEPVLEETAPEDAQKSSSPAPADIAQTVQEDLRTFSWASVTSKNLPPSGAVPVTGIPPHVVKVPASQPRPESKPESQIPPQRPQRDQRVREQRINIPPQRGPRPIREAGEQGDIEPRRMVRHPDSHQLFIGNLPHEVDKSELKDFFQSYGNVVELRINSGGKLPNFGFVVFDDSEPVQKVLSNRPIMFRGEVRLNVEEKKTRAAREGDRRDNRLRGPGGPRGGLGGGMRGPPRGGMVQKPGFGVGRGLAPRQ
All sequences stand within: GGGAGUUCUACAGUCCGACGAUC … UGGAAUUCUCGGGUGUCAAGG
The log2 enrichment of `GUCCUGUGCUACACAUCGUAUGUACCGAAUCGGCCCCCGGCCCCCGGGGCCCCCGGGGAAAGUAUUAUGUUACGCCGUUCGGAUCUGCAC` is reported as -0.829.
`UGGCCCUGUUGGCAUGCGGGGAGGAAGAGGUGGCCUCAUGGAUCGUGGUGGUCCCGGUGGAAUGUUCAGAGGUGGCCGUGGUGGAGACAG` has a log2 enrichment of 0.385.
`GUCCUGUGCUACACAUCGUAUGUACCGAAUCGGGGUGGGGAAAAAAAGGGGAAAGGGGAAAGUAUUAUGUUACGCCGUUCGGAUCUGCAC` gave a log2 enrichment of 0.392.
For `UGCUUGUGUUUCUGACAGAUUCACUGCCUUCUGAGGACUUGGAUCCUGCCGAUCCCCCGAUCUCGGUAACUGUUGGCCUGAUCUGGCUGU`, the log2 enrichment was 0.453.
`GUCCUGUGCUACACAUCGUAUGUACCGAAUCGGGGCCCCCGGGGCCCCCGGCCCCCGGAAAGUAUUAUGUUACGCCGUUCGGAUCUGCAC` has a log2 enrichment of -2.74.
`UGGGAGGUGGAUUUUGUUUAUUUUUUUAGCCCAUUUCCAGGGGUGGGAAUUUUUUUUUAAUAUGUGUCAUGAAUAAAGUUGUUUUUGAAA` has a log2 enrichment of -0.32.
For `UCUGAGCAAUUGAAUGCCCUAAACAAGGCUUACCAUGACCUUUGUGAUGGUUCUGCAAAUCAGCUUCAGCAGCUUCAGAGCCAGUUGGCU`, the log2 enrichment was -1.84.
For `UCAUGUAUAGACAACGCCAUUAUUGACGAGAUCACUCCCAAGCGGAUUGGAGAUUGUCCCAAUAUUUAGACCUAUAGCAAGGCCUUGGGA`, the log2 enrichment was -0.782.
`UCAAGUCCUGUGCUACACAUCGUAUGUACCGAAUCGGGAAAAAGGGAGGGAGGGAAAGUAUUAUGUUACGCCGUUCGGAUCUGCACUUCC` gave a log2 enrichment of -0.585.
`CAAGUCCUGUGCUACACAUCGUAUGUACCGAAUCGGGGUUUGGGUUUGGGGUUUGGAAAGUAUUAUGUUACGCCGUUCGGAUCUGCACUU` has a log2 enrichment of -1.08.
With `AGUCCUGUGCUACACAUCGUAUGUACCGAAUCAAAUUUUUAAAUUUUUAAAUUUAAAAAAGUAUUAUGUUACGCCGUUCGGAUCUGCACU` the log2 enrichment was -2.79.

A few entries again (set 4):
`GUCCUGUGCUACACAUCGUAUGUACCGAAUCGGGGUGGGGAAAAAAAGGGGAAAGGGGAAAGUAUUAUGUUACGCCGUUCGGAUCUGCAC` gave a log2 enrichment of 0.392.
For `UCAUGUAUAGACAACGCCAUUAUUGACGAGAUCACUCCCAAGCGGAUUGGAGAUUGUCCCAAUAUUUAGACCUAUAGCAAGGCCUUGGGA`, the log2 enrichment was -0.782.
With `AGUCCUGUGCUACACAUCGUAUGUACCGAAUCAAAUUUUUAAAUUUUUAAAUUUAAAAAAGUAUUAUGUUACGCCGUUCGGAUCUGCACU` the log2 enrichment was -2.79.
For `UCUGAGCAAUUGAAUGCCCUAAACAAGGCUUACCAUGACCUUUGUGAUGGUUCUGCAAAUCAGCUUCAGCAGCUUCAGAGCCAGUUGGCU`, the log2 enrichment was -1.84.
For `UGCUUGUGUUUCUGACAGAUUCACUGCCUUCUGAGGACUUGGAUCCUGCCGAUCCCCCGAUCUCGGUAACUGUUGGCCUGAUCUGGCUGU`, the log2 enrichment was 0.453.
The log2 enrichment of `GUCCUGUGCUACACAUCGUAUGUACCGAAUCGGCCCCCGGCCCCCGGGGCCCCCGGGGAAAGUAUUAUGUUACGCCGUUCGGAUCUGCAC` is reported as -0.829.
`UGGCCCUGUUGGCAUGCGGGGAGGAAGAGGUGGCCUCAUGGAUCGUGGUGGUCCCGGUGGAAUGUUCAGAGGUGGCCGUGGUGGAGACAG` has a log2 enrichment of 0.385.
`CAAGUCCUGUGCUACACAUCGUAUGUACCGAAUCGGGGUUUGGGUUUGGGGUUUGGAAAGUAUUAUGUUACGCCGUUCGGAUCUGCACUU` has a log2 enrichment of -1.08.
